Experimental data collected from several papers.
± marks the error that the study gave.

The tissue uptake of N=C(N)NCCC[C@@H]1NC(=O)[C@H](CCCCNC(=O)CNC(=O)CNC(=O)CNC(=O)CC[C@H](NC(=O)CNC(=O)CNC(=O)CNC(=O)CN2CCN(CC(=O)O)CCN(CC(=O)O)CCN(CC(=O)O)CC2)C(=O)NCC(=O)NCC(=O)NCC(=O)NCCCC[C@@H]2NC(=O)[C@@H](Cc3ccccc3)NC(=O)[C@H](CC(=O)O)NC(=O)CNC(=O)[C@H](CCCNC(=N)N)NC2=O)NC(=O)[C@@H](Cc2ccccc2)NC(=O)[C@H](CC(=O)O)NC(=O)CNC1=O [indium-111 labelled] is reported as 0.32 ± 0.05 %ID/g (female athymic nu/nu mice, eyes; intravenous, 24 h).
N=C(N)NCCC[C@@H]1NC(=O)[C@H](CCCCNC(=O)CCOCCOCCOCCOCCNC(=O)CC[C@H](NC(=O)CCOCCOCCOCCOCCNC(=O)CN2CCN(CC(=O)O)CCN(CC(=O)O)CCN(CC(=O)O)CC2)C(=O)NCCOCCOCCOCCOCCC(=O)NCCCC[C@@H]2NC(=O)[C@@H](Cc3ccccc3)NC(=O)[C@H](CC(=O)O)NC(=O)CNC(=O)[C@H](CCCNC(=N)N)NC2=O)NC(=O)[C@@H](Cc2ccccc2)NC(=O)[C@H](CC(=O)O)NC(=O)CNC1=O [copper-64 labelled] has a tissue uptake of 0.95 ± 0.34 %ID/g (athymic nu/nu mouse, female, muscle; intravenous, 4 h).
CSCC[C@H](NC(=O)[C@H](CC(C)C)NC(=O)[C@H](Cc1c[nH]cn1)NC(=O)CNC(=O)[C@@H](NC(=O)[C@H](C)NC(=O)[C@H](Cc1c[nH]c2ccccc12)NC(=O)[C@H](CCC(N)=O)NC(=O)CCOCCOCCOCCOCCNC(=O)CN1CCN(CC(=O)O)CCN(CC(=O)O)CCN(CC(=O)O)CC1)C(C)C)C(N)=O [indium-111 labelled] gave a tissue uptake of 1 ± 0.4 %ID/g (Swiss nu/nu mouse, male, PC-3 tumour xenograft, colon; intravenous, 10 pmol, 24 h).
CCCC[C@H](NC(=O)COCCOCCNC(=O)CN1CCN(CC(=O)O)CCN(CC(=O)O)CC1)C(=O)N[C@H]1CC(=O)NCCCC[C@@H](C(N)=O)NC(=O)[C@H](Cc2c[nH]c3ccccc23)NC(=O)[C@H](CCCNC(=N)N)NC(=O)[C@@H](Cc2ccccc2)NC(=O)[C@H](Cc2c[nH]cn2)NC1=O [copper-64 labelled] has a tissue uptake of 0.32 ± 0.15 %ID/g (C57 mice, stomach; intravenous, 0.37 MBq, 24 h).
N=C(N)NCCC[C@@H]1NC(=O)[C@H](CCCCNC(=O)CNC(=O)CNC(=O)CNC(=O)CC[C@H](NC(=O)CNC(=O)CNC(=O)CNC(=O)CC[C@H](NC(=O)CN2CCN(CC(=O)O)CCN(CC(=O)O)CCN(CC(=O)O)CC2)C(=O)NCC(=O)NCC(=O)NCC(=O)N[C@@H](CCC(=O)NCC(=O)NCC(=O)NCC(=O)NCCCC[C@@H]2NC(=O)[C@@H](Cc3ccccc3)NC(=O)[C@H](CC(=O)O)NC(=O)CNC(=O)[C@H](CCCNC(=N)N)NC2=O)C(=O)NCC(=O)NCC(=O)NCC(=O)NCCCC[C@@H]2NC(=O)[C@@H](Cc3ccccc3)NC(=O)[C@H](CC(=O)O)NC(=O)CNC(=O)[C@H](CCCNC(=N)N)NC2=O)C(=O)NCC(=O)NCC(=O)NCC(=O)NCCCC[C@@H]2NC(=O)[C@@H](Cc3ccccc3)NC(=O)[C@H](CC(=O)O)NC(=O)CNC(=O)[C@H](CCCNC(=N)N)NC2=O)NC(=O)[C@@H](Cc2ccccc2)NC(=O)[C@H](CC(=O)O)NC(=O)CNC1=O [indium-111 labelled] has a tissue uptake of 0.45 ± 0.06 %ID/g (female athymic nu/nu mice, muscle; intravenous, 111 kBq, 72 h).
CC(C)C[C@H](NC(=O)CN1CCN(CC(=O)O)CCN(CC(=O)O)CC1)C(=O)N[C@@H](CC(C)C)C(=O)N[C@@H](CC(C)C)C(=O)N[C@@H](CC(C)C)C(=O)N[C@@H](CCCNC(=N)N)C(=O)N[C@H](C(=O)N[C@@H](CCCCN)C(=O)N[C@@H](CCCNC(=N)N)C(N)=O)C(C)C [copper-64 labelled] gave a tissue uptake of 13 ± 2 %ID/g (CD1 mouse, male, liver; intravenous, 15 min).
The tissue uptake of Cc1cc(O)cc(C)c1C[C@H](NC(=O)[C@@H]1CCCN1C(=O)[C@H](CCCNC(=N)N)NC(=O)[C@H](CCCNC(=N)N)N(C)C(=O)[C@@H]1CCCN1C(=O)[C@@H](CC(C)C)NC(=O)[C@@H](CC(C)C)NC(=O)[C@@H](CC(C)C)NC(=O)[C@@H](CC(C)C)NC(=O)[C@H](CCCCN)NC(=O)CN1CCN(CC(=O)O)CCN(CC(=O)O)CCN(CC(=O)O)CC1)C(=O)N[C@H](C(=O)N[C@@H](CC(C)C)C(=O)O)C(C)(C)C [lutetium-177 labelled] is reported as 0.04 ± 0.02 %ID/g (CF-1 mouse, blood; iv, 370 kBq, 4 h).
CCCC[C@H](NC(=O)CCCCCCCNC(=O)CN1CCN(CC(=O)O)CCN(CC(=O)O)CC1)C(=O)N[C@H]1CC(=O)NCCCC[C@@H](C(N)=O)NC(=O)[C@H](Cc2c[nH]c3ccccc23)NC(=O)[C@H](CCCNC(=N)N)NC(=O)[C@@H](Cc2ccccc2)NC(=O)[C@H](Cc2c[nH]cn2)NC1=O [copper-64 labelled] gave a tissue uptake of 0.95 ± 0.21 %ID/g (C57 mice, liver; intravenous, 0.37 MBq, 4 h).
N=C(N)NCCC[C@@H]1NC(=O)[C@H](CCCCNC(=O)CC[C@H](NC(=O)CC[C@H](NC(=O)CN2CCN(CC(=O)O)CCN(CC(=O)O)CCN(CC(=O)O)CC2)C(=O)N[C@@H](CCC(=O)NCCCC[C@@H]2NC(=O)[C@@H](Cc3ccccc3)NC(=O)[C@H](CC(=O)O)NC(=O)CNC(=O)[C@H](CCCNC(=N)N)NC2=O)C(=O)NCCCC[C@@H]2NC(=O)[C@@H](Cc3ccccc3)NC(=O)[C@H](CC(=O)O)NC(=O)CNC(=O)[C@H](CCCNC(=N)N)NC2=O)C(=O)NCCCC[C@@H]2NC(=O)[C@@H](Cc3ccccc3)NC(=O)[C@H](CC(=O)O)NC(=O)CNC(=O)[C@H](CCCNC(=N)N)NC2=O)NC(=O)[C@@H](Cc2ccccc2)NC(=O)[C@H](CC(=O)O)NC(=O)CNC1=O [indium-111 labelled] gave a tissue uptake of 10.8 ± 1.46 %ID/g (female athymic nu/nu mice, intestine; intravenous, 0.5 h).
CC(C)C[C@H](NC(=O)[C@H](Cc1ccc(O)cc1)NC(=O)[C@@H](CCCNC(=N)N)NC(=O)[C@@H](CO)NC(=O)[C@H](Cc1ccccc1)NC(=O)[C@H](CC1CCCCC1)NC(=O)[C@H](CC(=O)O)NC(=O)CN1CCCN2CCN(CCCN(CC(=O)O)CC2)CC1)C(=O)N[C@@H](Cc1c[nH]c2ccccc12)C(=O)N[C@@H](CO)C(=O)O [copper-64 labelled] has a tissue uptake of 3.6 ± 1 %ID/g (female NMRI nude mice, tumor; 1 h p.i.).
The tissue uptake of CCCC[C@H](NC(=O)CNC(=O)CNC(=O)CN1CCN(CC(=O)O)CCN(CC(=O)O)CCN(CC(=O)O)CC1)C(=O)N[C@H]1CC(=O)NCCCC[C@@H](C(N)=O)NC(=O)[C@H](Cc2c[nH]c3ccccc23)NC(=O)[C@H](CCCNC(=N)N)NC(=O)[C@@H](Cc2ccccc2)NC(=O)[C@H](Cc2c[nH]cn2)NC1=O [lutetium-177 labelled] is reported as 0.24 ± 0.04 %ID/g (C57 mouse, female, lung; intravenous, 0.037 MBq, 4 h).

For quick reference, copied from above:
N=C(N)NCCC[C@@H]1NC(=O)[C@H](CCCCNC(=O)CC[C@H](NC(=O)CC[C@H](NC(=O)CN2CCN(CC(=O)O)CCN(CC(=O)O)CCN(CC(=O)O)CC2)C(=O)N[C@@H](CCC(=O)NCCCC[C@@H]2NC(=O)[C@@H](Cc3ccccc3)NC(=O)[C@H](CC(=O)O)NC(=O)CNC(=O)[C@H](CCCNC(=N)N)NC2=O)C(=O)NCCCC[C@@H]2NC(=O)[C@@H](Cc3ccccc3)NC(=O)[C@H](CC(=O)O)NC(=O)CNC(=O)[C@H](CCCNC(=N)N)NC2=O)C(=O)NCCCC[C@@H]2NC(=O)[C@@H](Cc3ccccc3)NC(=O)[C@H](CC(=O)O)NC(=O)CNC(=O)[C@H](CCCNC(=N)N)NC2=O)NC(=O)[C@@H](Cc2ccccc2)NC(=O)[C@H](CC(=O)O)NC(=O)CNC1=O [indium-111 labelled] gave a tissue uptake of 10.8 ± 1.46 %ID/g (female athymic nu/nu mice, intestine; intravenous, 0.5 h).
